Experimental data gathered from unrelated publications.
Protocols differ between the studies behind these lines.
Target: Tyrosine-protein kinase CSK (CSK, Homo sapiens, UniProt P41240)
Sequence of UniProt P41240 (whole entry, looked up): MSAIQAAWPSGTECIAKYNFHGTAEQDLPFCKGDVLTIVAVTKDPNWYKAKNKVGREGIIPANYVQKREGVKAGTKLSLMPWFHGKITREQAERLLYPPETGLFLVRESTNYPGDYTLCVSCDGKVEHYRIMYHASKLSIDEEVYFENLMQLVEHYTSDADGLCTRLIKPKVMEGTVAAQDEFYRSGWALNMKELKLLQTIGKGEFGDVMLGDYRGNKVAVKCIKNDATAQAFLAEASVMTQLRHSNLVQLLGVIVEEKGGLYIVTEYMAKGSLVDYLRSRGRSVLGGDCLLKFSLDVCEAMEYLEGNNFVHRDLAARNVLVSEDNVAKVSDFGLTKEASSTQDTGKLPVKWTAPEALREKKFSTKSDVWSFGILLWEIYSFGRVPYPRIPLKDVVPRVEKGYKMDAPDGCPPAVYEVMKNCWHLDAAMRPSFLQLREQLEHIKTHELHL

N[C@H](C(=O)N1CCCC1)C1CCN(c2nccc3c(-c4ncc(Cl)cc4Cl)cccc23)CC1
inhibition (kinase activity, inhibitor; 10 µM, added: ATP 1 mM): 19.9%

O=C1NC(=O)c2c1c1cc(F)c[n+]3c1c1c2c2cc(O)ccc2[n]1[Ru-4]312([N]=C=S)[S+]3CC[S+]1CC[S+]2CC3 (centres unmarked)
remaining activity (enzyme activity; 100 nM, human enzyme, added: 10 µM ATP; reference: untreated): 108%

CN(/N=C/c1ccccc1C(=O)O)c1nc(-c2ccccc2Cl)cs1
inhibition (enzyme activity, inhibitor; 1 µM): -9.56%

CN(C)[C@H]1C[C@@]23CC[C@@]4(O2)C(=CC[C@]2(C)[C@@H](c5ccc6ccncc6c5)CC[C@H]24)C=C3[C@@H](O)[C@@H]1O
inhibition (ATP probe labelling, inhibitor, KiNativ profiling; 1 µM): -10.2%

CC(C)[C@H]1NC(=O)C[C@H]2/C=C/CCSSC[C@@H](NC1=O)C(=O)N[C@H](Cc1cccc3ccccc13)C(=O)NCC(=O)O2
inhibition (enzyme activity, inhibitor; 10 µM): 2.7%

O=C(CN1CN(c2ccccc2)C2(CCN(C(=O)c3cnc4[nH]ncc4c3)CC2)C1=O)NCC(F)(F)F
inhibition (inhibitor; concentration not given): < 50%

O=C(O)c1ccccc1/C=N/Nc1nc(-c2ccccc2Cl)cs1
inhibition (enzyme activity, inhibitor; 1 µM): -10.6%

CS(C)(=O)=Nc1ccc(-c2ccc(-c3nc4cc(O[C@@H]5CO[C@H]6[C@@H]5OC[C@H]6O)[nH]c4cc3F)cc2)cc1
inhibition (enzyme activity, inhibitor; 10 µM): 11%
